# Results pooled from the literature.
# Protocols differ between the studies behind these lines. “And” joins repeats or separate records; there may be more than shown.
SMILES,organism,test,system,conditions,scale,endpoint,result
C#Cc1ccc(C=NNC(=O)c2ccc(COC)cc2)c(O)c1,Aspergillus fumigatus,,293,"unit not given, together with: voriconazole",lower = more synergy,FICI,2
NC(=O)c1ccc(N(C(N)=O)c2c(F)cccc2F)nc1-c1ccc(F)cc1F,murine hepatitis virus,"viral replication, nanoluciferase reporter",DBT,"1 µM, 10 h",reference: DMSO vehicle,inhibition,15%
CC[C@H](C)[C@H](NC(=O)[C@H](CCCNC(=N)N)NC(=O)[C@H](Cc1c[nH]c2ccccc12)NC(=O)[C@H](CCCNC(=N)N)NC(=O)[C@H](Cc1c[nH]c2ccccc12)NC(=O)[C@H](Cc1c[nH]c2ccccc12)NC(=O)[C@H](Cc1c[nH]c2ccccc12)NC(=O)[C@H](CCCNC(=N)N)NC(=O)[C@H](Cc1c[nH]c2ccccc12)NC(=O)[C@@H](N)CCCNC(=N)N)C(N)=O,Candida parapsilosis,broth microdilution,"CGMCC 2.399, RPMI 1640-MOPS","48 h, 30 °C",,MIC,16 µM
Nc1ncnc2c([C@@H]3N[C@H](CO)[C@@H](O)[C@H]3O)c[nH]c12,Measles morbillivirus,viral replication,"Vero 76, Chicago",0.3 µM,,inhibition,0%
COc1ccc2[nH]c3c4[nH]c5ccc(OC)cc5c4c4c(c3c2c1)C(=O)NC4=O,Aspergillus fumigatus,,,20 µM,reference: untreated,metabolic activity,≥ 80%
CC[C@H]1OC(=O)[C@H](C)[C@@H](O[C@H]2C[C@@](C)(OC)[C@@H](O)[C@H](C)O2)[C@H](C)[C@@H](O[C@@H]2O[C@H](C)C[C@H](N(C)C)[C@H]2O)[C@](C)(O)C[C@@H](C)CN(C)[C@H](C)[C@@H](O)[C@]1(C)O,Enterococcus faecalis and Enterococcus faecium,,,,,MIC90,> 32 µg/mL
CC(=O)C1=CC[C@H]2[C@@H]3C=CC4=CC(=O)CC[C@]4(C)[C@H]3C[C@@H](O)[C@]12C,Leishmania mexicana,"parasite growth, Giemsa stain count","C57BL/6 mouse bone marrow-derived macrophages, amastigotes",48 h,,IC50,3.5 µM
O=C(NCCN1CCOCC1)c1ccc2c(c1)C(=O)c1ccc(Nc3ccc(F)c(NC(=O)c4ccccc4)c3)cc1CC2,murine hepatitis virus,"viral replication, nanoluciferase reporter",DBT,"1 µM, 10 h",reference: DMSO vehicle,inhibition,0%
CS(=O)(=O)CCCn1c(Cn2c(=O)n(CC(F)(F)F)c3ccncc32)cc2cc(Cl)ccc21,respiratory syncytial virus,RT-qPCR,"hospitalized infants 1-24 months, nasal swab","oral, 8 mg/kg daily, day 14, cohort 6-24 months",reference: placebo,LS mean difference vs placebo,-0.54 log10 copies/mL
COC(=O)C1=C(C)NC(C)=C(C(=O)OC(C)(C)CN(C)CCC(c2ccccc2)c2ccccc2)C1c1cccc([N+](=O)[O-])c1 (stereo not shown),Aspergillus fumigatus,Alamar blue,,"31.25 µg/mL, 48 h, together with: caspofungin 0.2 µg/mL",,metabolic activity,19.6% and 22.9%
CCCC(CCC)C(=O)Nc1ccccc1O,Artemia franciscana,"LC-MS/MS metabolomics, refers to: 1-aminocyclopropanecarboxylic acid",larvae,"concentration not given, 48 h, LC10 concentration",reference: vehicle,fold change,1.76
Nc1ccn([C@@H]2O[C@H](CO)[C@@H](O)C2(F)F)c(=O)n1,human alphaherpesvirus 1,,"primary human fibroblasts, K26 GFP",,reference: CC50 over IC50,selectivity index,> 1200
COc1ccc2c(ccc3oc([N+](=O)[O-])c(OC)c32)c1,Enterobacter cloacae,REMA,,,,MIC90,> 32 µg/mL
Nc1ncnc2c1ncn2[C@@H]1O[C@@H]2COP(=O)(O)O[C@H]3[C@@H](O)[C@H](n4cnc5c(=O)[nH]cnc54)O[C@@H]3COP(=O)(O)O[C@H]2[C@H]1O,West Nile virus,"RNA sequencing, refers to: purinergic signaling leishmaniasis infection R-HSA-9660826",HFF-1 cells,"concentration not given, upregulated pathway",reference: WNV-infected untreated cells,fold enrichment,7.08
Nc1c(C(=O)NCc2ccc(C(=O)NCCCC3CCCCC3)cc2)cnn1-c1ccccc1,murine hepatitis virus,"viral replication, nanoluciferase reporter",DBT,"1 µM, 10 h",reference: DMSO vehicle,inhibition,13%
C[C@H](NC(=O)[C@H](CCCNC(=N)N)NC(=O)[C@H](Cc1c[nH]c2ccccc12)NC(=O)[C@H](CCCNC(=N)N)NC(=O)[C@H](Cc1c[nH]c2ccccc12)NC(=O)[C@H](Cc1c[nH]c2ccccc12)NC(=O)[C@H](Cc1c[nH]c2ccccc12)NC(=O)[C@H](CCCNC(=N)N)NC(=O)[C@H](Cc1c[nH]c2ccccc12)NC(=O)[C@@H](N)CCCNC(=N)N)C(N)=O,Candida albicans,broth microdilution,"CGMCC 2.209, RPMI 1640-MOPS","48 h, 30 °C, together with: NH4Cl 6 µM",,MIC,4 µM
OCCn1cc(-c2ccc3c(c2)CC/C3=N\O)c(-c2ccncc2)n1,murine hepatitis virus,"viral replication, nanoluciferase reporter",DBT,"1 µM, 10 h",reference: DMSO vehicle,inhibition,18%
COc1cc2oc([N+](=O)[O-])cc2c2ccccc12,Mycobacterium avium subsp. hominissuis,REMA,ATCC 25291,,,MIC90,4 µg/mL
COc1cc([C@@H]2c3cc4c(cc3[C@H](O)[C@H]3COC(=O)[C@@H]23)OCO4)cc(OC)c1OC,murine hepatitis virus,"viral replication, nanoluciferase reporter",DBT,"1 µM, 10 h",reference: DMSO vehicle,inhibition,44%
CC(C)[C@H](NC(=O)[C@H](CCCNC(=N)N)NC(=O)[C@H](Cc1c[nH]c2ccccc12)NC(=O)[C@H](CCCNC(=N)N)NC(=O)[C@H](Cc1c[nH]c2ccccc12)NC(=O)[C@H](Cc1c[nH]c2ccccc12)NC(=O)[C@H](Cc1c[nH]c2ccccc12)NC(=O)[C@H](CCCNC(=N)N)NC(=O)[C@H](Cc1c[nH]c2ccccc12)NC(=O)[C@@H](N)CCCNC(=N)N)C(N)=O,Candida parapsilosis,broth microdilution,"CGMCC 2.399, RPMI 1640-MOPS","48 h, 30 °C",,MIC,8 µM
O=[N+]([O-])c1cc2c(ccc3cc(Br)ccc32)o1,Enterobacter cloacae,REMA,,,,MIC90,> 32 µg/mL
COc1cc(Nc2nc(C)cc(-c3cnn4nc(OC)ccc34)n2)cc(C(F)(F)F)c1,murine hepatitis virus,"viral replication, nanoluciferase reporter",DBT,1 µM,reference: DMSO vehicle,inhibition,1%
